Experimental data gathered from unrelated publications.
± gives the spread as reported.

SMILES	method	measured	medium	tested at	temperature	notes	pKa
Cc1ccccc1-c1cc(N2CCN(C)CC2)ccc1N(C)C(=O)C(C)(C)c1cc(C(F)(F)F)cc(C(F)(F)F)c1	potentiometric titration	–	67% methanol in water	–	–	–	6.95
Cc1ccc(CC(=O)N/N=C/c2cc(Br)c(O)c(Br)c2O)cc1	spectrophotometric titration	first phenolic para-hydroxyl	aqueous NaCl with buffer	10 µM	–	–	~5.5
CONC(=O)c1noc2ccccc12	potentiometric titration	–	0.15 M KCl	–	–	Yasuda-Shedlovsky extrapolation	6.35
Cc1ccccc1-c1cc(N2CCCCC2)ccc1N(C)C(=O)C(C)(C)c1cc(C(F)(F)F)cc(C(F)(F)F)c1	potentiometric titration	–	67% methanol in water	–	–	–	4.31
CC1=C2[O][Ru-]([Cl])[O+]=C2C=CN1CCCCCCCCCCCCN1C=CC2=[O+][Ru-]([Cl])[O]C2=C1C.Cc1ccc(C(C)C)cc1.Cc1ccc(C(C)C)cc1	NMR pD titration	–	–	–	–	–	9.83 ± 0.06
Br.Br.Br.O=c1c(O)cccn1CCN1CCN(CCn2cccc(O)c2=O)CCN(CCn2cccc(O)c2=O)CC1	potentiometric titration	–	hydroxypyridinone group	–	–	pKa4	8.84
COc1ccc(/C=C/c2ccc(-c3ccc(C)cn3)nc2)cc1	pH titration	–	–	–	–	conjugate acid of ligand	4.5
CC(C)C[C@H](NC(=O)[C@H](CCC1CCCCC1)NC(=O)[C@@H]1CCCN1C(=O)c1ccc(F)cc1)C(=O)NC(C)(C)C(=O)N[C@@H](CC(C)C)C(=O)N[C@@H](CC(C)C)C(=O)NC(C)(C)C(=O)NC(C)(C)C(=O)NCCC(=O)NCCN1CCOCC1	potentiometric titration	–	methanol-water 1:4, NaCl 150 mM	–	–	terminal amine	5.2
Cc1ncsc1-c1ccc([C@H](C)NC(=O)[C@@H]2C[C@@H](O)CN2C(=O)[C@@H](NC(=O)CN2CCN(C(=O)C[C@@H]3N=C(c4ccc(Cl)cc4)c4c(sc(C)c4C)-n4c(C)nnc43)CC2)C(C)(C)C)cc1	experimental	–	–	–	–	–	2.32 ± 0.03
O=c1[nH]c(-c2nc3ccccc3s2)no1	potentiometric titration	–	0.15 M KCl	–	–	Yasuda-Shedlovsky extrapolation	2.87
Cc1nc(N(C)C)nc(C)c1O	spectrophotometry	–	potassium phosphate 10 mM, KCl 200 mM	–	298 K	–	9
O=c1[nH]c(-c2nc3ccccc3[nH]2)no1	potentiometric titration	–	0.15 M KCl	–	–	Yasuda-Shedlovsky extrapolation	4.04
CC(C)C[C@H](NC(=O)[C@H](CCC1CCCCC1)NC(=O)[C@@H]1CCCN1C(=O)c1ccc(F)cc1)C(=O)NC(C)(C)C(=O)N[C@@H](CC(C)C)C(=O)N[C@@H](CC(C)C)C(=O)NC(C)(C)C(=O)NC(C)(C)C(=O)NCCC(=O)NCCN(C)C	potentiometric titration	–	methanol-water 1:4, NaCl 150 mM	–	–	terminal amine	7.3
CC(=O)Nc1ncc(CN2CC[C@H](Oc3cccc(F)n3)C[C@@H]2C)s1	–	–	–	–	–	–	10.6
O=C(NC1CCCCN=CC1=O)OCc1ccccc1 (stereo not shown)	13C chemical shift titration	–	–	–	25 °C	–	6.24 ± 0.03
O=c1c(Br)c2oc3c(CN(Cc4ccccn4)Cc4cnccn4)c(O)ccc3nc-2c2ccccc12	fluorescence	–	–	–	–	first pKa	5.35
CCCC[C@H](NC(=O)[C@H](CC(C)C)N(C)C(=O)CNC(=O)[C@@H](NC(=O)[C@H](Cc1ccccc1)NC(=O)[C@H](CCCCN)NC(=O)[C@@H](N)CC(=O)O)C(C)C)C(N)=O	potentiometric titration	–	–	–	–	first pKa	11.38 ± 0.08
Cc1ccccc1-c1cc(N2CCOCC2)ccc1N(C)C(=O)C(C)(C)c1cc(C(F)(F)F)cc(C(F)(F)F)c1	potentiometric titration	–	67% methanol in water	–	–	–	< 3
O=S(=O)([O-])CCCSCCN(CCSCCCS(=O)(=O)[O-])CCSCCCS(=O)(=O)[O-].[Na+].[Na+].[Na+]	potentiometric or spectrophotometric titration	–	–	–	–	ionic strength 0.1	7.11

Excerpt of the above:
SMILES	method	measured	medium	tested at	temperature	notes	pKa
CCCC[C@H](NC(=O)[C@H](CC(C)C)N(C)C(=O)CNC(=O)[C@@H](NC(=O)[C@H](Cc1ccccc1)NC(=O)[C@H](CCCCN)NC(=O)[C@@H](N)CC(=O)O)C(C)C)C(N)=O	potentiometric titration	–	–	–	–	first pKa	11.38 ± 0.08
Cc1ccccc1-c1cc(N2CCN(C)CC2)ccc1N(C)C(=O)C(C)(C)c1cc(C(F)(F)F)cc(C(F)(F)F)c1	potentiometric titration	–	67% methanol in water	–	–	–	6.95
CC(=O)Nc1ncc(CN2CC[C@H](Oc3cccc(F)n3)C[C@@H]2C)s1	–	–	–	–	–	–	10.6
